Experimental data gathered from unrelated publications.
Each line is one published result; not all experiments were run side by side. Several values in a cell are separate wells, animals, samples, runs or records. ± gives the spread as reported.

SMILES	test	test system	setting	how to read	quantity	value
CC(=O)CCC1C(=O)NC(C(C)C)C(=O)NC(Cc2cc(O)cc(F)c2)C(=O)N2CCCC(N2)C(=O)OC(C(C)=CC=CC(=O)N2CCCCO2)CC=CC=CC(O)C(C)C1O (stereo not drawn)	–	rat Sprague-Dawley male, whole blood	oral, 5 mg/kg	baseline: whole blood over plasma	AUC(0-24h) ratio	37
CCCCCCCCCCCCCCCC(=O)N[C@@H](CCC(=O)NCCOCCOCCC(=O)NCCOCCOCCC(=O)NCCCC[C@H](NC(=O)[C@H](CC(=O)O)NC(=O)[C@H](CC(C)C)NC(=O)[C@H](Cc1ccc(O)cc1)NC(=O)[C@H](CCCCN)NC(=O)[C@H](CO)NC(=O)[C@H](Cc1ccc(O)cc1)NC(=O)[C@H](CC(=O)O)NC(=O)[C@H](CO)NC(=O)[C@@H](NC(=O)[C@H](Cc1ccccc1)NC(=O)[C@@H](NC(=O)CNC(=O)[C@H](CCC(N)=O)NC(=O)[C@@H](CO)NC(=O)[C@@H](N)Cc1c[nH]cn1)[C@@H](C)O)[C@@H](C)O)C(=O)N[C@@H](CCCNC(=N)N)C(=O)N[C@@H](CCCNC(=N)N)C(=O)N[C@@H](C)C(=O)N[C@@H](CCC(N)=O)C(=O)N[C@@H](CC(=O)O)C(=O)N[C@@H](Cc1ccccc1)C(=O)N[C@H](C(=O)N[C@@H](CCC(N)=O)C(=O)N[C@@H](Cc1c[nH]c2ccccc12)C(=O)N[C@@H](CC(C)C)C(=O)N[C@@H](CC(C)C)C(=O)N[C@@H](CC(N)=O)C(=O)N[C@H](C(=O)NCC(=O)NCC(=O)N1CCC[C@H]1C(=O)N[C@@H](CO)C(=O)N[C@@H](CO)C(=O)NCC(=O)N[C@@H](C)C(=O)N1CCC[C@H]1C(=O)N1CCC[C@H]1C(=O)N1CCC[C@H]1C(=O)N[C@@H](CO)C(N)=O)[C@@H](C)O)C(C)C)C(=O)O	–	Sprague-Dawley rat, female	subcutaneous, 500 µg/kg once daily, 14 days	–	total cholesterol	0.61 ± 0.18 mmol/L
O=C(CN1CCN(CC(=O)NCc2ncccc2O)CCN(CC(=O)NCc2ncccc2O)CCN(CC(=O)NCc2ncccc2O)CC1)NCc1ncccc1O.[177Lu+3]	–	rat	intravenous, 0.1 mmol/kg	–	time to death	≤ 1 min
CC[C@H](C)[C@H](NC(=O)[C@H](CCCCN)NC(=O)CNC(=O)[C@H](CC(C)C)NC(=O)[C@H](Cc1ccccc1)NC(=O)[C@H](CCCCN)NC(=O)[C@H](CO)NC(=O)[C@H](Cc1ccccc1)NC(=O)[C@H](Cc1c[nH]c2ccccc12)NC(=O)[C@H](CCC(N)=O)NC(=O)[C@@H](NC(=O)[C@H](Cc1ccccc1)NC(=O)CCCCCNC(=O)CN1CCN(CC(=O)O)CCN(CC(=O)O)CCN(CC(=O)O)CC1)C(C)C)C(=O)N[C@@H](CCC(=O)O)C(=O)N1CCC[C@H]1C(=O)N[C@@H](CC(=O)O)C(=O)N[C@H](C(=O)N[C@@H](CO)C(=O)N[C@@H](CCC(N)=O)C(=O)N[C@H](C(=O)N[C@@H](CCC(N)=O)C(=O)N[C@@H](CC(=O)O)C(=O)N1CCC[C@H]1C(=O)N[C@@H](CC(N)=O)C(=O)N[C@@H](CC(=O)O)C(=O)N[C@@H](CCC(N)=O)C(=O)N[C@@H](Cc1ccc(O)cc1)C(=O)N[C@@H](CCC(=O)O)C(=O)N1CCC[C@H]1C(=O)N[C@@H](Cc1ccccc1)C(=O)O)C(C)C)C(C)C [copper-64 labelled]	–	C57BL/6 mice, kidneys	added: LPS 3 mg/kg intratracheal	–	tissue uptake	35.3 ± 2.7 %ID/g
COc1cnc2cccc(N3CCc4c(cc(Cn5ccnc5)cc4-c4cn(C)nc4C(F)(F)F)C3=O)c2c1	–	BALB/c nude mice, MV4-11 xenograft	intraperitoneal, 50 mg/kg, day 17	–	body weight	22.8 g and 23.4 g and 24.2 g and 22.6 g and 21.3 g
COc1ccc(C([O-])=CC(=O)c2ccc(C(C)(C)C)cc2)cc1.Cc1ccc(C(C)C)cc1.[Cl-].[Ru+2]	–	zebrafish larvae	10 µM, 96 h, dark	baseline: normal	viability	100%
CSCC[C@H](N)C(=O)N[C@@H](C)C(=O)N[C@@H](Cc1c[nH]c2ccccc12)C(=O)N[C@@H](Cc1c[nH]cn1)C(=O)N[C@@H](CC(=O)O)C(=O)N[C@@H](CC(=O)O)C(=O)N[C@@H](CCC(=O)O)C(=O)N[C@@H](CCC(=O)O)C(=O)N[C@@H](Cc1ccccc1)C(=O)N[C@@H](C)C(=O)N[C@@H](CCCNC(=N)N)C(=O)N[C@@H](CCCNC(=N)N)C(=O)N[C@@H](CCCNC(=N)N)C(=O)N[C@@H](CCCNC(=N)N)C(=O)NCCCCCC(=O)NCCCCC(NC(=O)CCCCCNC(=O)[C@H](CCCNC(=N)N)NC(=O)[C@H](CCCNC(=N)N)NC(=O)[C@H](CCCNC(=N)N)NC(=O)[C@H](CCCNC(=N)N)NC(=O)[C@H](C)NC(=O)[C@H](Cc1ccccc1)NC(=O)[C@H](CCC(=O)O)NC(=O)[C@H](CCC(=O)O)NC(=O)[C@H](CC(=O)O)NC(=O)[C@H](CC(=O)O)NC(=O)[C@H](Cc1c[nH]cn1)NC(=O)[C@H](Cc1c[nH]c2ccccc12)NC(=O)[C@H](C)NC(=O)[C@@H](N)CCSC)C(=O)NCCCCC(NC(=O)C(CCCCNC(=O)CCCCCNC(=O)[C@H](CCCNC(=N)N)NC(=O)[C@H](CCCNC(=N)N)NC(=O)[C@H](CCCNC(=N)N)NC(=O)[C@H](CCCNC(=N)N)NC(=O)[C@H](C)NC(=O)[C@H](Cc1ccccc1)NC(=O)[C@H](CCC(=O)O)NC(=O)[C@H](CCC(=O)O)NC(=O)[C@H](CC(=O)O)NC(=O)[C@H](CC(=O)O)NC(=O)[C@H](Cc1c[nH]cn1)NC(=O)[C@H](Cc1c[nH]c2ccccc12)NC(=O)[C@H](C)NC(=O)[C@@H](N)CCSC)NC(=O)CCCCCNC(=O)[C@H](CCCNC(=N)N)NC(=O)[C@H](CCCNC(=N)N)NC(=O)[C@H](CCCNC(=N)N)NC(=O)[C@H](CCCNC(=N)N)NC(=O)[C@H](C)NC(=O)[C@H](Cc1ccccc1)NC(=O)[C@H](CCC(=O)O)NC(=O)[C@H](CCC(=O)O)NC(=O)[C@H](CC(=O)O)NC(=O)[C@H](CC(=O)O)NC(=O)[C@H](Cc1c[nH]cn1)NC(=O)[C@H](Cc1c[nH]c2ccccc12)NC(=O)[C@H](C)NC(=O)[C@@H](N)CCSC)C(N)=O (stereo partly drawn)	–	C57BL/6 mouse female, thymus	dose not given, 6 h	baseline: total	mean tissue distribution	0.78%
CC(C)Oc1c(NC(=O)c2ccc(NC(=O)[C@H](CC(N)=O)NC(=O)c3ccc(/N=N/c4ccccc4)cc3)cc2)ccc(C(=O)N/N=C/c2ccc(C(=O)O)cc2)c1O	absorbance	DMSO	30 °C, PSS to ground state relaxation	–	thermal half-life	74 h
O=C1NC2(CC2)COc2ncc(F)cc2[C@H]2COCCN2c2ccn3ncc1c3n2	–	Sprague-Dawley rat, female	oral, 2.5 mg/kg/day, end of treatment, 4-week repeated-dose toxicity	–	body weight	342 ± 24.5 g
CC(CCC(=O)NCC(=O)O)C1CCC2C3C(O)CC4CC(OC5OC(C(=O)O)C(O)C(O)C5O)CCC4(C)C3CCC12C (stereo not drawn)	–	human women	dose not given, SLCO1B1 *14/*35	–	plasma concentration	6.28 ng/mL
CN1Cc2cc(Cl)ccc2-n2c(nnc2C2CCN(c3cccc([18F])n3)CC2)C1	PET two-tissue compartment model	rhesus monkey, thalamus	intravenous, dose not given, 70 min scan, baseline scan	–	total volume of distribution	1.11 ± 0.32 mL/cm3
N#Cc1ccc(N2N=C3c4ccc(C(=O)O)cc4CCC3C2C2CCCC2)cc1Cl (stereo not drawn)	–	mouse, liver microsomes	1 µM	–	intrinsic clearance	7.1 µL/min/mg

Some of these lines once more:
SMILES	test	test system	setting	how to read	quantity	value
CSCC[C@H](N)C(=O)N[C@@H](C)C(=O)N[C@@H](Cc1c[nH]c2ccccc12)C(=O)N[C@@H](Cc1c[nH]cn1)C(=O)N[C@@H](CC(=O)O)C(=O)N[C@@H](CC(=O)O)C(=O)N[C@@H](CCC(=O)O)C(=O)N[C@@H](CCC(=O)O)C(=O)N[C@@H](Cc1ccccc1)C(=O)N[C@@H](C)C(=O)N[C@@H](CCCNC(=N)N)C(=O)N[C@@H](CCCNC(=N)N)C(=O)N[C@@H](CCCNC(=N)N)C(=O)N[C@@H](CCCNC(=N)N)C(=O)NCCCCCC(=O)NCCCCC(NC(=O)CCCCCNC(=O)[C@H](CCCNC(=N)N)NC(=O)[C@H](CCCNC(=N)N)NC(=O)[C@H](CCCNC(=N)N)NC(=O)[C@H](CCCNC(=N)N)NC(=O)[C@H](C)NC(=O)[C@H](Cc1ccccc1)NC(=O)[C@H](CCC(=O)O)NC(=O)[C@H](CCC(=O)O)NC(=O)[C@H](CC(=O)O)NC(=O)[C@H](CC(=O)O)NC(=O)[C@H](Cc1c[nH]cn1)NC(=O)[C@H](Cc1c[nH]c2ccccc12)NC(=O)[C@H](C)NC(=O)[C@@H](N)CCSC)C(=O)NCCCCC(NC(=O)C(CCCCNC(=O)CCCCCNC(=O)[C@H](CCCNC(=N)N)NC(=O)[C@H](CCCNC(=N)N)NC(=O)[C@H](CCCNC(=N)N)NC(=O)[C@H](CCCNC(=N)N)NC(=O)[C@H](C)NC(=O)[C@H](Cc1ccccc1)NC(=O)[C@H](CCC(=O)O)NC(=O)[C@H](CCC(=O)O)NC(=O)[C@H](CC(=O)O)NC(=O)[C@H](CC(=O)O)NC(=O)[C@H](Cc1c[nH]cn1)NC(=O)[C@H](Cc1c[nH]c2ccccc12)NC(=O)[C@H](C)NC(=O)[C@@H](N)CCSC)NC(=O)CCCCCNC(=O)[C@H](CCCNC(=N)N)NC(=O)[C@H](CCCNC(=N)N)NC(=O)[C@H](CCCNC(=N)N)NC(=O)[C@H](CCCNC(=N)N)NC(=O)[C@H](C)NC(=O)[C@H](Cc1ccccc1)NC(=O)[C@H](CCC(=O)O)NC(=O)[C@H](CCC(=O)O)NC(=O)[C@H](CC(=O)O)NC(=O)[C@H](CC(=O)O)NC(=O)[C@H](Cc1c[nH]cn1)NC(=O)[C@H](Cc1c[nH]c2ccccc12)NC(=O)[C@H](C)NC(=O)[C@@H](N)CCSC)C(N)=O (stereo partly drawn)	–	C57BL/6 mouse female, thymus	dose not given, 6 h	baseline: total	mean tissue distribution	0.78%
